# Assay results from different studies.
# Every numbered part comes from another study and shows a few of its results, in no order.

# Series 1 — method: RNA Bind-n-Seq; form: RNA; matrix: in vitro; concentration: 365 nM; baseline: no-protein control; direction: higher = stronger binding
# Target: RNA binding protein fox-1 homolog 2, RRM domain, GST-SBP tag (RBFOX2, Homo sapiens, UniProt O43251-10, residues 100-194)
# Notes: natural RNA segment, single round, ends assumed
# Residues (chain): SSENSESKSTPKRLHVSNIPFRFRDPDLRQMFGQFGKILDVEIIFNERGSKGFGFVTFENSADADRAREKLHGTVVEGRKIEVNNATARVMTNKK
Strand,RBNS enrichment (R)
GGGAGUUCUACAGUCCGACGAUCGAGCUACUCCCAAUUCCACUCUUCUGUGAUUCUGGCUGAGCAAGUUCAUGCCGGUAGAGGCUCAUUAAGUGAGGUCCUGGGCACCCCCCAAACAGGAAGUGUUUUCAGGCUGGAAUUCUCGGGUGCCAA,0.239
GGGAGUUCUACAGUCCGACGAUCCAUGGACCAUAACUCUGCUAUACCAGGCAGCCAGGUAUCUAGCAAUGUAGGGGACGUCAUGUCGUUUUCAGUGACUGUCACUACCAUCCCUGCCAGUCAAGCAAUGAAUCUGGAAUUCUCGGGUGCCAA,0.315
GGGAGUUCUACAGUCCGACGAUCGCUCACAGAGAUCAGAACUCUGUGUAGAUCACACUGGUCUAGAACUCAGAGUCUGCCUGCAUCUGUCUCCUAGUGCUGGGAUUAAAGGUGUGAGCCAUUAUACCUGGCUUUGGAAUUCUCGGGUGCCAA,1.73
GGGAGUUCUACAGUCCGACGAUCGCAAGAGUUUAACAUCUUCGGCCCUGCAUUCCUACAUCUUGUGUCUGUACACGUUCUUAAGCAGCGUGUCAGGAGAGCACCCUGUUGUCUUCUGGUAAAUGUGUGCAGGGUGGAAUUCUCGGGUGCCAA,0.467
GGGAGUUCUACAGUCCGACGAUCUGACACAGAGCCUUCUGUGCUGUUUCCUGUCCUAGGUUUGAGAGACCAAAUAUGAACUUGUGAGUUGUGUCAAUGCAGAGAACCGGGGUUUUGUGUUAAUAGAGUAUUGUUGGAAUUCUCGGGUGCCAA,0.987
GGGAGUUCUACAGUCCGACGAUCGCCCCCAUUCAGGGGCCGACUAACACCCUUUAUCCAAUGGUGCUAACCCCGGCUCUCCCUUUUCCACCCUACCCACCUAAAGAAGCACAGGCCCCACGAAGCAGGGGCCAUGGAAUUCUCGGGUGCCAA,0.315
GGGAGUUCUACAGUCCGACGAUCGAUCUGCCAUAAAUUCUUCCUAAAUAAUUUGUUUACUAACUCUUUAGGCCACUGUGCUUUGCGGUCCAUUAGUAAACUUGUGUUGCUAAGUGCUAAACAGAAUACUGCUAUGGAAUUCUCGGGUGCCAA,0.293
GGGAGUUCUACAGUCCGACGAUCAGUAGCCGUUUGUGGUUUAAAGCAAACAUGCAAGAUGAACCUGAGGGAUGAUAGAAUACAAAGAAUAUAUUUUUGUUAUGGCUGGUUACCACCAGCCUUUCUUCCCCUUUUGGAAUUCUCGGGUGCCAA,0.259
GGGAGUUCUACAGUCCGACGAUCACCUCUGGGGGUAGAGGGAAGACCUAAUUCACAGGUCCUGGGAAAUUUGCUCAAUAAAAGUGGCCUUCCCUUGCCCUCCACACUAGGUCAUGUACAGUCUACCGCACCCUUGGAAUUCUCGGGUGCCAA,0.326
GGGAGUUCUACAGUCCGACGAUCCCACUGUGGUGGCAGUGGAGGUGGGGUGUUUGGGAGGCUGCGUGCCAGUCAAGAAGAAAAAGGUUUGCAUUCUCACAUUGCCAGGAUGAUAAGUUCCUUUCCUUUUCUUUUGGAAUUCUCGGGUGCCAA,0.732
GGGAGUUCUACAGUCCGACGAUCUGUUUUGUUUUGUUUUUCAAGACAGGGUUUCUCUGUAUAGCCCUGGAUGUCCUGGGACUCACUCUGUAAACCAAGCUGGCCUCAAACUCAGAAAUCCGCCUGCCUCUGCCUGGAAUUCUCGGGUGCCAA,0.647
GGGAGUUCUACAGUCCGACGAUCGAACAAAAGGAAAGGUCUUUUUUCACUGCUUAAAGUGGGGUCACUUUGAUACCUUUGCGGUCAUGUCUGUGUCUGAUGAGUGUAGAAUCUCUGGAUGUGCACUGUCAGUCUGGAAUUCUCGGGUGCCAA,0.376

# Series 2 — method: competition protein-binding microarray; form: double-stranded DNA, one strand shown; matrix: in vitro; concentration: 2 µM; together with: Cbf1 competitor, 0.05 µM; direction: higher = stronger binding
# Target: Phosphate system positive regulatory protein PHO4, full length, GST-tagged (PHO4, Saccharomyces cerevisiae, UniProt P07270, residues 1-312)
# Notes: whole 60-bp probe, lowest competitor level
# Target sequence (chain): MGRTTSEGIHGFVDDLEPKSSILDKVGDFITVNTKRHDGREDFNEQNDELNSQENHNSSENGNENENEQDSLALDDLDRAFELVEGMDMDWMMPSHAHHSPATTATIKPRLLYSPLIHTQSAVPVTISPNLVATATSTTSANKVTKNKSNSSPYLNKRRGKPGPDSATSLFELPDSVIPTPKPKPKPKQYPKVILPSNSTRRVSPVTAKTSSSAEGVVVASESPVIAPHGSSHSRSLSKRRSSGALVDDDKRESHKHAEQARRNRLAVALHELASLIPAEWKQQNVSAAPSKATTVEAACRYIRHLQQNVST
Strand,fluorescence intensity
AAGACATATAATCAAAACGTGAGATTCCTGTGGAAAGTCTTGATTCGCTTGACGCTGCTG,9150 a.u.
CCTGCCAAGGGTAACCACGTGCTGGGAGATTTGCAGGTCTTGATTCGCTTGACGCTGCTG,17900 a.u.
AAATTACTAAGTTGTCACATCACTTACCCCGTATGAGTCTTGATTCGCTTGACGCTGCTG,3860 a.u.
AAGAAATATCTGTGAAATGTGACGCTTATAGCATACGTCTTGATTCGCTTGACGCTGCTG,4850 a.u.
CATGATTTTTGCTTTGGCATTGTTCTGGTATGGTATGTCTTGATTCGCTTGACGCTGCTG,4550 a.u.
GCTTGTTTTCTCCGTCACGGGTTTAGACCTTGGTGGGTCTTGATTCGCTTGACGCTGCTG,7990 a.u.
TATAAAACAACTTTGAACGTGGCAAATCAGATTGCCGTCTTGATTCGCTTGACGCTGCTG,12100 a.u.
GTCTTGTCTCATTGTCACCACACTTTCCCCACTTCAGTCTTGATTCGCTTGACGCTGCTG,6150 a.u.
CATCGGCCCAACTTGATCATGCAATTAGCAAGCAACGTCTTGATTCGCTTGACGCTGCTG,4260 a.u.
CATACCCAACCTTGTCACAGCACTTAAGATATTTGTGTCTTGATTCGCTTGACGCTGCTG,4560 a.u.
CTAACGAAGGTTTGAGACGTGGGTGACAAGCCAAGTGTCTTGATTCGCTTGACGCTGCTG,6070 a.u.
TAGCACAGGCACCCGCACACGCAGAGCTCACAGACCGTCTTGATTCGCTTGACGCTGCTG,9240 a.u.
GCCTCCGTCTCTTCCACTGTGCAGGGCGCTAGCTCAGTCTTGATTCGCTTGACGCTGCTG,2990 a.u.
AAAGCGGTAATTTGTCACTCGACTTCACATATCTATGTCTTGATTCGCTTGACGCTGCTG,3200 a.u.
CGTCCTAGTGATTGGGACGTGGGTGCCATGAGGAAGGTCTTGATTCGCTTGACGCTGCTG,8950 a.u.
TGCTCCGTTGACATCTTCGTGGGTACTCATATCACTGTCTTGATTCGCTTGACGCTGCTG,5880 a.u.
AAAGCGGTAATTTTTCACGTGAGTTCACATATCTATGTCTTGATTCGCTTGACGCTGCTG,11000 a.u.
GGCTTGGATCTCAAAAGCGTGGGTAGCGTCGGCGCGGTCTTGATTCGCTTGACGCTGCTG,7390 a.u.
CGTCCTAGTGATTGGGGCGTGGGTGCCATGAGGAAGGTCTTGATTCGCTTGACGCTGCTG,9930 a.u.

# Series 3 — method: protein binding microarray; form: double-stranded DNA, one strand shown; matrix: in vitro; concentration: not given; baseline: not given; direction: higher = stronger binding
# Target: Histone acetyltransferase KAT6A, both winged helices, GST fusion (KAT6A, Homo sapiens, UniProt Q92794, residues 1-181)
# Notes: 8-mer, flanks averaged, mean of 2 arrays, mostly near background
# Construct (chain): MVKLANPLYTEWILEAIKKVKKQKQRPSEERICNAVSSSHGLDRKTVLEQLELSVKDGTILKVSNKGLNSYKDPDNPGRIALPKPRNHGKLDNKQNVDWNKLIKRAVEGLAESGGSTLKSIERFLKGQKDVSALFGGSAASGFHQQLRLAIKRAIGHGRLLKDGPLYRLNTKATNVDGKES
Strand,E-score
AGAGCGGG,0.193
GGATCAAC,0.057
ATCAGGCC,-0.091
GGAATCTA,-0.0617
CCGAATGC,0.201
CATGCATC,0.0536
TGGAGACA,-0.121
GGGGCAGA,-0.251
CTTATACA,-0.057
AGTACGCG,0.211
GTACGGAA,0.218
AGGAACCG,0.0772
GGGGTAAC,-0.179
ATACCCAG,-0.149
CCGCCTAC,0.149
ATTGGTCC,-0.0121
TAAGAGCA,-0.207
CGGCTTAC,0.236
GTGCCACA,-0.155
ATGAGCGC,0.271
ACAAGCTC,-0.142

# Series 4 — target: UBE2E2 UBC core domain (UniProt Q96LR5); method: yeast two-hybrid; matrix: yeast; notes: mostly zero background; baseline: not given; direction: higher = stronger interaction
# UniProt Q96LR5, sequence (whole entry, looked up): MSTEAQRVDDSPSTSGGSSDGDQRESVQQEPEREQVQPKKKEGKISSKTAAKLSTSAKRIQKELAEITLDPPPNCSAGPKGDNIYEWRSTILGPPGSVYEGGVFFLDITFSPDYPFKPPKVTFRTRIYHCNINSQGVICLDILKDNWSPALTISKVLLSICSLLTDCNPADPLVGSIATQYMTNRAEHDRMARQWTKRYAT
# B1: TRIM60 RING domain (UniProt Q495X7); chain ALVNLQEESSCPICLEYLKDPVTINCGHNFCRSCLSVSWKDLDDTFPCPVCRFCFPYKSFRR
# B2: TRIM26 RING domain (UniProt Q12899); chain PLRSLEEEVTCSICLDYLRDPVTIDCGHVFCRSCTTDVRPISGSRPVCPLCKKPFKKENIRP
# B3: RNF187 RING domain (UniProt Q5TA31); chain ALPAGPAEAACALCQRAPREPVRADCGHRFCRACVVRFWAEEDGPFPCPECADDCWQRAVEP
# B4: RNF31 RING domain (UniProt Q96EP0); chain AFLRRLLAQECAVCGWALPHNRMQALTSCECTICPDCFRQHFTIALKEKHITDMVCPACGRPDLTDDTQLL
# B5: MYCBP2 RING domain (UniProt O75592); chain TSLKQDADDMCMICFTEALSAAPAIQLDCSHIFHLQCCRRVLENRWLGPRITFGFISCPICKNKINHIVLKD
# B6: TRIM22 RING domain (UniProt Q8IYM9); chain VKVDIEKEVTCPICLELLTEPLSLDCGHSFCQACITAKIKESVIISRGESSCPVCQTRFQPGNLRP
# B7: RLIM RING domain (UniProt Q9NVW2); chain SFGENDALKTCSVCITEYTEGNKLRKLPCSHEYHVHCIDRWLSENSTCPICRRAVLASGNRE
# B8: MKRN2 RING domain (UniProt Q9H000); chain FAFQASQDKVCSICMEVILEKASASERRFGILSNCNHTYCLSCIRQWRCAKQFENPIIKSCPECRVISEFVIPSV
# B9: ANAPC11 RING domain (UniProt Q9NYG5); chain GICRMAFNGCCPDCKVPGDDCPLVWGQCSHCFHMHCILKWLHAQQVQQHCPMCRQEWKFKE
Sequence,lacZ reporter activity
B1 (TRIM60 RING domain),0
B2 (TRIM26 RING domain),0
B3 (RNF187 RING domain),0
B4 (RNF31 RING domain),0
B5 (MYCBP2 RING domain),0
PEELAVNNDDCAICWDSMQAARKLPCGHLFHNSCLRSWLEQDTSCPTCRMSLNIADNNR (AMFR RING domain (UniProt Q9UKV5)),0
LDAASGHPLVCPLCHGQYERPCLLDCFHDFCTGCLRGRATDGRLSCPLCQHQTLVKGPSG (Rnf207 RING domain (UniProt Q3V3A7)),0
B6 (TRIM22 RING domain),0
YPEEVDDDLICHICLQALLDPLDTPCGHTYCTLCLTNFLVEKDFCPMDRKPLVLQHCKK (LNX1 RING domain (UniProt Q8TBB1)),0
LGTKLEAKYLCSACRNVLRRPFQAQCGHRYCSFCLASILSSGPQNCAACVHEGIYEEGIS (TRAF2 RING domain (UniProt Q12933)),0
B7 (RLIM RING domain),0
YCEMGSTFQLCKICAENDKDVKIEPCGHLMCTSCLTAWQESDGQGCPFCRCEIKGTEPII (CBLB RING domain (UniProt Q13191)),0
B8 (MKRN2 RING domain),0
B9 (ANAPC11 RING domain),0

# Excerpt of the above (series 3):
Strand,E-score
GGAATCTA,-0.0617
ATTGGTCC,-0.0121
GTGCCACA,-0.155
CATGCATC,0.0536
ATCAGGCC,-0.091
TAAGAGCA,-0.207
ACAAGCTC,-0.142
